Measured values pooled from the literature.
Numbered parts are unrelated; each lists some results of a single study. Positions count from the first letter of the parent shown.

Block 1
Target: Prothrombin, mature alpha-thrombin (F2, Homo sapiens, UniProt P00734)
Technique: aptamer microarray, sandwich
Form: DNA with 2'F-ANA
Medium: in vitro
Tested at: 200 nM
Notes: whole 15-mer aptamer, many near background
Together with: Cy3 exosite-II aptamer, 400 nM
Reading: higher = stronger binding
Quantity: mean fluorescence intensity
Strand: GGTTGGTGTGGTTGG
Modification = 2'F-ANA at 7 9 12 13 14; result = 229 a.u.
Modification = 2'F-ANA at 4 6 7 8 10 12 13 14; result = 60.1 a.u.
Modification = 2'F-ANA at 2 4 5 6 8 9 10 11 12 13 15; result = 79.6 a.u.
Modification = 2'F-ANA at 1 3 5 7 10 11 12; result = 57.3 a.u.
Modification = 2'F-ANA at 3 4 5 6 7 8 9 10 12 14; result = 50.1 a.u.
Modification = 2'F-ANA at 1 3 4 5 10 11 13 14; result = 46.7 a.u.
Modification = 2'F-ANA at 2 3 7 11 12 14 15; result = 486 a.u.
Modification = 2'F-ANA at 1 4 5 6 10 15; result = 46.4 a.u.
Modification = 2'F-ANA at 4 5 6 9 12; result = 203 a.u.
Modification = 2'F-ANA at 1 3 4 6 8 9 11 12 15; result = 302 a.u.
Modification = 2'F-ANA at 2 5 9 10 12; result = 52.7 a.u.
Modification = 2'F-ANA at 3 4 5 6 8 13 14 15; result = 79.9 a.u.
Modification = 2'F-ANA at 2 5 7 9 10 12 13 14; result = 136 a.u.
Modification = 2'F-ANA at 2 6 7 11 12 15; result = 463 a.u.
Modification = 2'F-ANA at 2 3 4 8 9 11 13 15; result = 493 a.u.
Modification = 2'F-ANA at 1 4 5 7 10 11 14 15; result = 134 a.u.
Modification = 2'F-ANA at 1 3 6 7 8 12 13; result = 478 a.u.
Modification = 2'F-ANA at 2 5 7 8 9 10 11 12 13 14 15; result = 55 a.u.
Modification = 2'F-ANA at 2 3 5 8 9 10 12 13; result = 56.5 a.u.
Modification = 2'F-ANA at 2 3 4 5 6 8 11 13 15; result = 75.6 a.u.
Modification = 2'F-ANA at 3 5 8 9 13 14; result = 55.9 a.u.
Modification = 2'F-ANA at 4 5 6 8 12 13; result = 124 a.u.
Modification = 2'F-ANA at 3 4 8 9 10 12 13; result = 291 a.u.
Modification = 2'F-ANA at 1 5 6 7 9 10 11 12 13 15; result = 50.9 a.u.
Modification = 2'F-ANA at 4 5 8 9 12 15; result = 159 a.u.

Block 2
Target: UBE2T UBC core domain (UniProt Q9NPD8)
Technique: yeast two-hybrid
Medium: yeast
Notes: mostly zero background
Baseline: not given
Reading: higher = stronger interaction
Quantity: lacZ reporter activity
B1: RNF38 RING domain (UniProt Q9H0F5); chain PNNHQSEQTLCVVCMCDFESRQLLRVLPCNHEFHAKCVDKWLKANRTCPICRADASEVHRDS
B2: RNF208 RING domain (UniProt Q9H0X6); chain SSAAAGEPLECPTCGHSYNVTQRRPRVLSCLHSVCEQCLQILYESCPKYKFISCPTCRRETVLFTDYG
B3: MKRN1 RING domain (UniProt Q9UHC7); chain FAVQRSKDMVCGICMEVVYEKANPSERRFGILSNCNHTYCLKCIRKWRSAKQFESKIIKSCPECRITSNFVIPSE
B4: TRIM43 RING domain (UniProt Q96BQ3); chain FSHAFQKELTCVICLNYLVDPVTICCGHSFCRPCLCLSWEEAQSPANCPACREPSPKMDFKT
B5: TRIM24 RING domain (UniProt O15164); chain EAARLNLLDTCAVCHQNIQSRAPKLLPCLHSFCQRCLPAPQRYLMLPAPMLGSAETPPPVPAPGSPVSGSSPFATQVGVIRCPVCSQECAERHII
B6: TRIM4 RING domain (UniProt Q9C037); chain EAEDIQEELTCPICLDYFQDPVSIECGHNFCRGCLHRNWAPGGGPFPCPECRHPSAPAALRP
B7: NEURL1 RING domain (UniProt O76050); chain VTPGLGQWSDECTICYEHAVDTVIYTCGHMCLCYACGLRLKKALHACCPICRRPIKDIIKT
Target sequence (chain): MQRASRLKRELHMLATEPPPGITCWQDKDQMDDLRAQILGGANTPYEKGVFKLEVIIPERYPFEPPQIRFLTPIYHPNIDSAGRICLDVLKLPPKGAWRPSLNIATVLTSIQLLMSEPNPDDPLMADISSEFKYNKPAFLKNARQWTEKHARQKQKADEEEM
Sequence = GAAPGPEAAECLVCSELALLVLFSPCQHRTVCEECARRMKKCIRCQVVVSKKLRPD (MIB2 RING domain (UniProt Q96AX9)); result = 0
Sequence = B1 (RNF38 RING domain); result = 0
Sequence = B2 (RNF208 RING domain); result = 0
Sequence = B3 (MKRN1 RING domain); result = 0
Sequence = B4 (TRIM43 RING domain); result = 0
Sequence = B5 (TRIM24 RING domain); result = 0
Sequence = B6 (TRIM4 RING domain); result = 0
Sequence = VEPSEENSKDCVVCQNGTVNWVLLPCRHTCLCDGCVKYFQQCPMCRQFVQESFALC (CGRRF1 RING domain (UniProt Q99675)); result = 0
Sequence = B7 (NEURL1 RING domain); result = 0

Block 3
Target: PABPC1L2, full length, GST fusion (mouse, UniProt A0ABA7IW68)
Technique: RNAcompete
Form: RNA
Medium: in vitro
Tested at: 20 nM
Notes: 7-mer, probes averaged, single round
Baseline: mean of 7-mers
Reading: higher = stronger binding
Quantity: 7-mer Z-score
Residues (chain): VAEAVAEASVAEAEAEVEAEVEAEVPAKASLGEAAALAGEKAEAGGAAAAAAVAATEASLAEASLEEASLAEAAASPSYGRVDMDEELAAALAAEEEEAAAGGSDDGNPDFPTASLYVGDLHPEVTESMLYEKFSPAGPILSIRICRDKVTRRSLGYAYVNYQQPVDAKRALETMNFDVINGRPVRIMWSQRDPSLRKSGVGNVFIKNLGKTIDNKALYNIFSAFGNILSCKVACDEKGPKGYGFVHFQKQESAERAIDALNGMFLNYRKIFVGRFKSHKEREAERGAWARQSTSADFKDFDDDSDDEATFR
Strand = GGCCAUC; result = -0.0808
Strand = UAGAUAA; result = 0.245
Strand = CGUGAGG; result = -0.34
Strand = CUUACAC; result = -0.124
Strand = AACCUUG; result = -0.208
Strand = AGUGCUA; result = 0.102
Strand = CCUCACA; result = -0.195
Strand = ACUCCGA; result = -0.229
Strand = ACACCCC; result = -0.313
Strand = GCGGCGG; result = 0.0696
Strand = AGCUGGG; result = 0.278
Strand = UCUGAAU; result = -0.204
Strand = UAGGUUG; result = -0.0464
Strand = CAUACUC; result = -0.186
Strand = AGAUAGU; result = -0.24
Strand = CCGUAGA; result = -0.171
Strand = GCCGGAU; result = -0.0681
Strand = UUCCGAG; result = -0.137
Strand = GUUACAA; result = 0.0116
Strand = UGUAGCA; result = -0.188

Block 4
Target: Histone acetyltransferase KAT6A, winged helix 1, GST fusion (KAT6A, Homo sapiens, UniProt Q92794, residues 1-85)
Technique: protein binding microarray
Form: double-stranded DNA, one strand shown
Medium: in vitro
Tested at: not given
Notes: 8-mer, flanks averaged, mean of 2 arrays, mostly near background
Baseline: not given
Reading: higher = stronger binding
Quantity: E-score
Target sequence (chain): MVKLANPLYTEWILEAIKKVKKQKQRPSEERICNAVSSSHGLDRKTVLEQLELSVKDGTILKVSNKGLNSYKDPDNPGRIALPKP
Strand = CCGGAACA; result = -0.012
Strand = ATCAGCAG; result = -0.0126
Strand = AAGGTAGG; result = -0.0934
Strand = AAGTCGAG; result = -0.248
Strand = CTAGGAAG; result = -0.166
Strand = AGTTGGAA; result = -0.109
Strand = CAAAACTC; result = -0.0911
Strand = CGATCAGC; result = 0.0215
Strand = GACCCGGA; result = 0.221
Strand = AACATGGA; result = -0.161
Strand = ATTGAGTA; result = -0.113
Strand = GGACGGAC; result = 0.24
Strand = CAGCAGTC; result = -0.0554
Strand = CACAATAA; result = -0.263
Strand = GTGATAAC; result = -0.0878
Strand = AGTTTCTC; result = -0.137
Strand = ACGATCAG; result = -0.175
Strand = ATTACTGC; result = 0.0319
Strand = CCGGAGAA; result = 0.16
Strand = CTCGCTTA; result = 0.0966
Strand = ACTGCCTA; result = -0.229
Strand = AATTATAT; result = -0.0321
Strand = GCTATCAC; result = -0.00033

Block 5
Target: Sal-like protein 4, full length isoform B (SALL4, Homo sapiens, UniProt Q9UJQ4-2, residues 1-616)
Technique: universal PBM
Form: double-stranded DNA, one strand shown
Medium: in vitro
Tested at: not given
Notes: 8-mer, flanks averaged, mean of replicates
Reading: higher = stronger binding
Quantity: E-score
Strand = CTGCAGTC; result = -0.306
Strand = CTAATTAC; result = 0.173
Strand = CAAGTTAA; result = 0.139
Strand = AATGGCCT; result = -0.0301
Strand = CTCAAGAA; result = -0.0137
Strand = AGACTAAG; result = -0.0287
Strand = CCACACCC; result = -0.191
Strand = GCAATGAC; result = -0.042
Strand = GGCTACAA; result = -0.0603
Strand = CAACTCCC; result = -0.107
Strand = ACGCCTAT; result = 0.0471
Strand = GGGCACTA; result = -0.0594
Strand = AAAAGAAC; result = 0.0672
Strand = AAGATTAT; result = 0.3
Strand = GCATAGAC; result = -0.0234
Strand = CTCTTTAA; result = 0.0976

Block 6
Target: CCNE2, cyclin fold, Cln2 fusion (human)
Technique: yeast growth competition, sequencing
Medium: yeast
Notes: strong parent motif
Baseline: not given
Reading: higher = stronger binding
Quantity: normalised enrichment score
Parent: E2F1 docking peptide (human); PPVKRRLDFETDH; partner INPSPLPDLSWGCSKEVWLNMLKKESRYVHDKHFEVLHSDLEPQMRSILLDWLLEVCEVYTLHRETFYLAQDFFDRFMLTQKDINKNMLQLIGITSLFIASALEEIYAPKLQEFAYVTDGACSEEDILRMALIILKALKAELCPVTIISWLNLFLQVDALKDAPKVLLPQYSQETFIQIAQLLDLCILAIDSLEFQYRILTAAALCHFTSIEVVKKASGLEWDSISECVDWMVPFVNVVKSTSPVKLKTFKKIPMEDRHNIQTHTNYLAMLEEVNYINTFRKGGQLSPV
Variant = PPVKRRLDFEPDH [T11P]; result = 5.66
Variant = PPVGRRLDFETDH [K4G]; result = 0.885
Variant = PPVPRRLDFETDH [K4P]; result = 1.26
Variant = PPVKRRLIFETDH [D8I]; result = 5.09
Variant = PPVKRKLDFETDH [R6K]; result = 5.54
Variant = PPVKRRLEFETDH [D8E]; result = 5.38
Variant = PPVKRRLDFETMH [D12M]; result = 6.58
Variant = PPVKRRLDFEGDH [T11G]; result = 5.64
Variant = PPVKRRLDFQTDH [E10Q]; result = 5.87
Variant = PPVKRRLDFETPH [D12P]; result = 6.35
Variant = PPVKRPLDFETDH [R6P]; result = -0.136
Variant = PPWKRRLDFETDH [V3W]; result = 4.76

Block 7
Target: ABI1, truncated, D143A, DHFR fusion (Arabidopsis thaliana)
Technique: DHFR PCA, deep sequencing
Medium: yeast
Notes: methotrexate growth selection, single substitutions
Together with: (+)-ABA 0.39 µM
Baseline: wild-type fitted maximum
Reading: higher = stronger binding
Quantity: relative binding score
Parent: PYL1, truncated, DHFR fusion (Arabidopsis thaliana); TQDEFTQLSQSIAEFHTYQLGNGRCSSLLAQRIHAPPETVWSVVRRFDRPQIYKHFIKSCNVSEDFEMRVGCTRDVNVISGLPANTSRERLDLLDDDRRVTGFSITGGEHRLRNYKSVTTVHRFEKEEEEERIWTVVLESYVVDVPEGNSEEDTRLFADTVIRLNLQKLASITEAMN; partner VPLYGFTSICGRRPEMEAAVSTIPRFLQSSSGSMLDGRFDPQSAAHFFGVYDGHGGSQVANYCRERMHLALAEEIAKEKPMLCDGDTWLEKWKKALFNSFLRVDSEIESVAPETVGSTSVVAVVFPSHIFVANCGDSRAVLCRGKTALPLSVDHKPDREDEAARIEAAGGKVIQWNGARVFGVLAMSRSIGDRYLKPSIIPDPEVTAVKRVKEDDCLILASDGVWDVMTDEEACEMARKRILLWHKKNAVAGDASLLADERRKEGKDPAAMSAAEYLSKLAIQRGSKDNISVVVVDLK
Variant = T135P; result = 2.46%
Variant = S87N; result = 5.9%
Variant = E139L; result = 16.6%
Variant = E109I; result = 3.84%
Variant = F15V; result = -2.16%
Variant = Y115N; result = -0.181%
Variant = S27L; result = -0.927%
Variant = Q2A; result = 56.2%
Variant = N165L; result = 8.07%
Variant = V118A; result = 16.4%
Variant = V145F; result = -32.5%

For quick reference, copied from above (block 2):
Sequence = GAAPGPEAAECLVCSELALLVLFSPCQHRTVCEECARRMKKCIRCQVVVSKKLRPD (MIB2 RING domain (UniProt Q96AX9)); result = 0
Sequence = B1 (RNF38 RING domain); result = 0
Sequence = B2 (RNF208 RING domain); result = 0
Sequence = B3 (MKRN1 RING domain); result = 0
Sequence = B4 (TRIM43 RING domain); result = 0
Sequence = B5 (TRIM24 RING domain); result = 0
Sequence = B6 (TRIM4 RING domain); result = 0
Sequence = VEPSEENSKDCVVCQNGTVNWVLLPCRHTCLCDGCVKYFQQCPMCRQFVQESFALC (CGRRF1 RING domain (UniProt Q99675)); result = 0
Sequence = B7 (NEURL1 RING domain); result = 0
